Results pooled from the literature.
A part holds a random share of what one study measured. “And” joins repeats or separate records; there may be more than shown.

Study 1 — cell line: normal-adjacent organoid sample F; technique: CellTiter-Glo; tested at: 1 µM; notes: replicate mean; relative to: DMSO
SMILES	viability [%]
O=C(O)c1ccc(-c2c[nH]c3ncc(-c4ccccc4)cc23)cc1C1CCCC1	101
Nc1nc(NCc2ccccc2)nc(-c2ccccc2CO)n1	113
C[C@H](c1ccnc(Nc2nc3ccc(-c4cc(N(C)C)ncn4)cc3[nH]2)c1)N1CCN(C(=O)CC(F)(F)F)CC1	109
CC(C)(O)c1cncc(-c2nc3ccc(F)cc3n2C2CC2)c1	104
CN(C)[C@H]1CCN(c2cc(-c3ccccc3)nc3ccnn23)C1	118
C[C@@]1(Cc2ccc(C#N)cc2)C(=O)N(c2cc(Cl)cc(Cl)c2)c2ncc(C(=O)NC3(c4nc(C5CCC5)no4)CC3)n21	96.1
O=C1CCc2cc(Nc3cc(OC4CCOCC4)c([N+](=O)[O-])cc3Cl)ccc2N1	105
C[C@H](c1ccc(F)cc1)N(Cc1cccc(C(=O)O)c1)C(=O)c1cnc2ccccc2c1	104
CN1CCN(c2cnc3c(C4CCN(C(=O)c5ccc(OC(F)(F)F)cc5N)CC4)ncnc3c2)CC1	101
C[C@H](c1cccc(C#N)c1)n1cc(Cl)cc(C(N)=O)c1=N	136
Cc1cn(-c2cc(NC(=O)c3ccc4c(c3)CN(c3cncnc3)C[C@@H]4C)cc(C(F)(F)F)c2)cn1	106
CO[C@H]1CC[C@H](CNc2ccc(S(=O)(=O)NC(=O)c3ccc(N4CCN(CC5=C(c6ccc(Cl)cc6)CC(C)(C)CC5)CC4)cc3Oc3cnc4[nH]ccc4c3)cc2[N+](=O)[O-])CC1	66.5
CCC(=O)N[C@@H]1CC[C@H](C(=O)N(C)c2ccc(-c3nc4ccccc4o3)cc2)C1	105
CNC(=O)c1cc(C(=O)N[C@H]2[C@@H]3COC[C@@H]32)cc2c1O[C@@H](CF)[C@@H]2c1ccccc1	104
Cn1cnc2c(F)c(Nc3ccc(Br)cc3Cl)c(C(=O)NOCCO)cc21	66.4
CN(c1ccnc(CNc2nc(Nc3ccc4c(c3)CC(=O)N4)ncc2C(F)(F)F)n1)S(C)(=O)=O	106
NS(=O)(=O)c1cc(NC(=O)Cc2ccccc2)ccc1Oc1cccc(Cl)c1	104

Study 2 — effect on: enzyme activity; mode: inhibitor; tested at: 0.5 µM; relative to: control
Target: Cyclin-dependent kinase 7 (CDK7, Homo sapiens, UniProt P50613)
Chain of UniProt P50613 (whole entry, looked up): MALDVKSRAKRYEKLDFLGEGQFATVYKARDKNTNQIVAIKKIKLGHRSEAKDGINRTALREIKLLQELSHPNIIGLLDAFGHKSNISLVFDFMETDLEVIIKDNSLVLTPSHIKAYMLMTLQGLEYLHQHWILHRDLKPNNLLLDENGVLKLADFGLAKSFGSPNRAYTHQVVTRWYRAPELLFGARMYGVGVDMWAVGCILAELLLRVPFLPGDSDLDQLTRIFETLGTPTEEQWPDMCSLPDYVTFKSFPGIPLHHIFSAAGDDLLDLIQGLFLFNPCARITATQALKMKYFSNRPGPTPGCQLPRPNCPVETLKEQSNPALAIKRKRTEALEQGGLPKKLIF
SMILES	remaining activity
C[S+]([O-])c1ccc(-c2nc(-c3ccncc3)c(-c3ccc(F)cc3)[nH]2)cc1 (stereo not shown)	96.8%
Cc1ccc(NC(=O)c2ccc(CN3CCN(C)CC3)cc2)cc1Nc1nccc(-c2cccnc2)n1	101%
Nc1[nH]nc2nnc(-c3c(-c4ccccc4)nn4ccccc34)cc12	99%
Cn1cnc2cc3c(Nc4cccc(Br)c4)ncnc3cc21	99.5%
CN(C)CCCn1cc(C2=C(c3c[nH]c4ccccc34)C(=O)NC2=O)c2ccccc21	92.1%

Study 3 — host: human; medium: microsomes or S9; tested at: 2 µM; time: 0.5 h
SMILES	remaining compound
COC(=O)c1ncn2c1C(=O)OC(COc1ccccc1)C2 (stereo not shown)	2.64%
Cc1cc(CN2CCN(Cc3cc(C)c(O)c(C)c3)CC2)cc(C)c1O	65.5%
O=c1c2c3c(nn2cnn1Cc1nc(-c2ccccc2F)no1)CCCC3	12.5%
Cc1ccc(-c2noc3c(N(C)Cc4ccccc4)ncnc23)cc1	33.4%

Study 4 — technique: RNA Bind-n-Seq; form: RNA; medium: in vitro; tested at: 15 pmol; notes: 4-mer, random 30-nt RNA, single round; added: DMSO vehicle, 2 mM AMP-PNP; relative to: input library; direction: higher = stronger binding
Target: Eukaryotic initiation factor 4A-I (EIF4A1, Homo sapiens, UniProt P60842, residues 1-406, full length assumed)
Chain of UniProt P60842 (whole entry, looked up): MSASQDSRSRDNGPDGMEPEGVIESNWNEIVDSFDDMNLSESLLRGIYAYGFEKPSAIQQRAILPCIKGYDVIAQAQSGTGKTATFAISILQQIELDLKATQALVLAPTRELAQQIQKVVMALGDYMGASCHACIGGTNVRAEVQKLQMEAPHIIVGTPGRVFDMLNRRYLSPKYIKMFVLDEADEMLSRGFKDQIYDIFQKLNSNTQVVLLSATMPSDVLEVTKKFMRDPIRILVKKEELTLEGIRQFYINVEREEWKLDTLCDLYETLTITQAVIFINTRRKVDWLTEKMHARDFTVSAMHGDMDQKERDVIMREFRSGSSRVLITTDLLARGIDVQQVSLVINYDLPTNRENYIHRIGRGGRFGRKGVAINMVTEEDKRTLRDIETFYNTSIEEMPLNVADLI
Oligonucleotide	4-mer enrichment
GCUC	1.06 fold
AGCC	1.26 fold
UUUU	0.972 fold
AUGC	1.09 fold
GUUC	0.911 fold
GUGU	0.801 fold
UCUC	1.08 fold
UCGC	0.802 fold

Mixed results
Compound	assay	test system	conditions	measurement	result
COc1ccc(-c2c(Nc3ccccn3)[nH]c3c(C4=CCCCC4)c(-c4ccccc4)nn3c2=O)cc1	LC-MS/MS, refers to: S-adenosylmethionine	human patients, plasma	100 mg QD, 2 h, mean	plasma SAM concentration	19 ng/mL
COc1cc(C(=O)OCCCN2CCCN(CCCOC(=O)c3cc(OC)c(OC)c(OC)c3)CC2)cc(OC)c1OC	von Frey test	mouse, STZ diabetic neuropathy	subcutaneous, 30 mg/kg, second of three doses, 24 h	paw withdrawal frequency	0.13 fraction of stimuli and 0.29 fraction of stimuli and 0.08 fraction of stimuli
CN1CC[C@H](c2c(O)cc(O)c3c(=O)cc(-c4ccccc4Cl)oc23)[C@H](O)C1	–	nude mouse, HH xenograft	dose not given, day 14	tumour volume	46.8 mm³ and 49.4 mm³ and 225 mm³ and 74.4 mm³ and 127 mm³ and 134 mm³ and 128 mm³ and 100 mm³

Repeated from above (study 4):
Oligonucleotide	4-mer enrichment
GCUC	1.06 fold
AGCC	1.26 fold
UUUU	0.972 fold
AUGC	1.09 fold
GUUC	0.911 fold
GUGU	0.801 fold
